Published values collected from several papers.
Lines come from different studies, so protocols differ.
B1: RABH1B (Arabidopsis thaliana, UniProt O80501); chain MAPVSALAKYKLVFLGDQSVGKTSIITRFMYDKFDNTYQATIGIDFLSKTMYLEDRTVRLQLWDTAGQERFRSLIPSYIRDSSVAVIVYDVASRQSFLNTTKWIDEVRTERGSDVIVVLVGNKTDLVDKRQVSIEEAEAKARELNVMFIETSAKAGFNIKALFRKIAAALPGMETLSSTKQEDMVDVNLKSSNANASLAQQQSGGCSC
B2: UGT1A4 (Homo sapiens, UniProt P22310); chain GKVLVVPTDGSPWLSMREALRELHARGHQAVVLTPEVNMHIKEEKFFTLTAYAVPWTQKEFDRVTLGYTQGFFETEHLLKRYSRSMAIMNNVSLALHRCCVELLHNEALIRHLNATSFDVVLTDPVNLCGAVLAKYLSIPAVFFWRYIPCDLDFKGTQCPNPSSYIPKLLTTNSDHMTFLQRVKNMLYPLALSYICHTFSAPYASLASELFQREVSVVDLVSYASVWLFRGDFVMDYPRPIMPNMVFIGGINCANGKPLSQEFEAYINASGEHGIVVFSLGSMVSEIPEKKAMAIADALGKIPQTVLWRYTGTRPSNLANNTILVKWLPQNDLLGHPMTRAFITHAGSHGVYESICNGVPMVMMPLFGDQMDNAKRMETKGAGVTLNVLEMTSEDLENALKAVINDKSYKENIMRLSSLHKDRPVEPLDLAVFWVEFVMRHKGAPHLRPAAHDLTWYQYHSLDVIGFLLAVVLTVAFITFKCCAYGYRKCLGKKGRVKKAHKSKTH
B3: enzyme (Trypanosoma brucei, UniProt Q9GV41); chain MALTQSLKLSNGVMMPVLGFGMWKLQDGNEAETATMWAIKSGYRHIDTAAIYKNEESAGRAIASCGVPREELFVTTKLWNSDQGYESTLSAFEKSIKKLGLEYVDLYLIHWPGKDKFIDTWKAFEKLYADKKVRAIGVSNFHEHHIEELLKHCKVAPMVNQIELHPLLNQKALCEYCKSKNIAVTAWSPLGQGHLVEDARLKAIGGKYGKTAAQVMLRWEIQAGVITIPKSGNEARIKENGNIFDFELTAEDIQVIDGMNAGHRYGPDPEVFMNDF
B4: enzyme (Chlamydomonas reinhardtii, UniProt A0A2K3D977); chain ASDSVLAVWRKADAVCFDVDCTITVNDSLDLLAEFMGVKEQVEILTNKAMDGSLSLEQALEERLNIINCSPDDIKRFIKAHPPASRMAPGIKELINSLQARGKAIYLISGGFRELTLPIAAYLGIPKENVFANRMNWQWDDETGMPTKLVGFDMSEPTAHNQGKPQAIARIRQRNPYNTVVMIGDGITDLEAVQTTGGADLFIGSGVVVERPAVAREADWYVYDYTDLLRTMARYSVAMVGSGAWACAAVRMIAQNTQVDDAADEFVDEVRMWVYEEDFEGKKLTEVINQTHTNPKYFPGFDLGPNVVAVPNIVDAVADADLIVFCAPHQFLHHICKQLVGKIKPGAAAISLTKGMRVRPEGPQLISQMVRRLLGIDCCVLMGANIATDIGREQLSEAVIGYDNLDAATLFQKIFQRPYFRVNLLPDPVGAEMCGTLKNIVALGAGMVDGLGLGPNSKAAIIRQGLVEMRAFSKALYPSVRDDTFMESCGVGDLVATCYGGRNRLVACEWTKAQMEGKPRTFEDLETDLLKGQKLQGVLTSNEVQEILKVRGWESQYPLFTTVNRIINGYLPPKYVVEFVAGAKYHIRRPGTDDEEIVPVRPKRPAAAGGVATAPILAA
B5: enzyme (Cyanidioschyzon merolae, UniProt M1V8C6); chain EPPRDTAATSSHEFTHHVTEKAKDWSGSGTWLQSYIEQGPLAAAIPPQYAPSRSLSRWQAWGSYLFKELGLDGTLERDQNRIFRFYLPVFAWSLHVVNRLQRDERRKQHGVIIGLQCPQGGGKTTLTAALQKLFDLEQRRCVSLSIDDFYLTRREQEALARAFPENPLLGSRGNPGTHDISLALQVLNEVVAAPYPGEHAEVAVPRYDKSAFQGLGDRAPPEQWPLVSRPVDVVFLEGWCLGFRPLALHERPATMDPITLRHLMQVDRFLAEDFSRLYPLLDAFIVIALDGPKLSESLRIVYQWRLEAEQQMRAAGRPAMTDEQVYAFVDKFMPAYKAYLGDLYGGPPLTGNLSRELRVGIDETRSPTRLNPHSELVP
B6: enzyme C33S (UniProt A0A0P0CH59); chain MRIALFSDIHANLPALEAVLANMETQQLDAIYSLGDLVGYAPWPNEVVAEIRKRRIPTIAGNYDEGVGLWSPNCGCAYKTDTEKDLGQQSIDFTNNVVTEETRKYLRMLPRQLRLTFMDGSKEENKIELLLVHGSPRKINEYLFEDRPEKSFLKMMEEANADLLFFGHTHKPYHRAMPYEHEGQTRYRHAINIGSVGKPKDGDPRTGYVVVELTPESSLTQKDSIKVEFIRVPYDVETAAQAVEASPLPNEFAQMLRTA
Sequence of UniProt P0AGF6 (whole entry, looked up): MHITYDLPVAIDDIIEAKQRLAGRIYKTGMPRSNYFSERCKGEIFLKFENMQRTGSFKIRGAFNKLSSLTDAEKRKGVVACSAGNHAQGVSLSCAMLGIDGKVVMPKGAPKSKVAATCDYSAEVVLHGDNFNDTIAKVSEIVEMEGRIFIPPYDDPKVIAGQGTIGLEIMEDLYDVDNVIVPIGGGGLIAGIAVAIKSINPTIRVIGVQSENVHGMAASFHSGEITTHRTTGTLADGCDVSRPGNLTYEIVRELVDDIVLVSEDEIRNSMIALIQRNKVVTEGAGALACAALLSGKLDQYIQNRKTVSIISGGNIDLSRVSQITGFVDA

B1 (RABH1B)  Vmax (Nc1nc2c(ncn2[C@@H]2O[C@H](COP(=O)(O)OP(=O)(O)OP(=O)(O)O)[C@@H](O)[C@H]2O)c(=O)[nH]1; steady-state kinetics; pH 7.5, 30 °C): 2.4 µmol/min
enzyme (UniProt A0A097IUD8)  Vmax (C=C(OP(=O)(O)O)C(=O)O; steady-state kinetics; pH 6, 25 °C, with: 2 mM ADP): 32 µmol/min/mg
B2 (UGT1A4)  Vmax (CN1CCN(CCCN2c3ccccc3Sc3ccc(C(F)(F)F)cc32)CC1; steady-state kinetics; 37 °C, not purified): 0.000568 µmol/min/mg
QLIMQLMP  binding score (HLA class I histocompatibility antigen, A alpha chain, allele A*02:01 (Homo sapiens, UniProt P04439); conformational ELISA; peptide; concentration not given; baseline: positive control peptide, direction not given): 0.4%
enzyme (UniProt A0A097IUE6)  Vmax (O=C(O)CC(=O)C(=O)O; steady-state kinetics; pH 7.5, 25 °C): 63.8 µmol/min/mg
B3 (enzyme)  Vmax (NC(=O)C1=CN([C@@H]2O[C@H](COP(=O)(O)OP(=O)(O)OC[C@H]3O[C@@H](n4cnc5c(N)ncnc54)[C@H](OP(=O)(O)O)[C@@H]3O)[C@@H](O)[C@H]2O)C=CC1; steady-state kinetics; pH 7, 37 °C, cofactor varied): 1.5 µmol/min/mg
B4 (enzyme)  Vmax (NC(=O)C1=CN([C@@H]2O[C@H](COP(=O)(O)OP(=O)(O)OC[C@H]3O[C@@H](n4cnc5c(N)ncnc54)[C@H](O)[C@@H]3O)[C@@H](O)[C@H]2O)C=CC1; steady-state kinetics; pH 7.5, with: DHAP 5 mM): 114 µmol/min/mg
gdh E198G/N97F (Bacillus subtilis)  Vmax (NC(=O)c1ccc[n+]([C@@H]2O[C@H](COP(=O)(O)OP(=O)(O)OC[C@H]3O[C@@H](n4cnc5c(N)ncnc54)[C@H](O)[C@@H]3O)[C@@H](O)[C@H]2O)c1; steady-state kinetics; pH 7, 55 °C): 248 µmol/min/mg
B5 (enzyme)  Vmax (O=C(O)[C@H](O)CO; steady-state kinetics; pH 7.8, 30 °C): 28.9 µmol/min/mg
gdh N97F (Bacillus subtilis)  Vmax (NC(=O)c1ccc[n+]([C@@H]2O[C@H](COP(=O)(O)OP(=O)(O)OC[C@H]3O[C@@H](n4cnc5c(N)ncnc54)[C@H](O)[C@@H]3O)[C@@H](O)[C@H]2O)c1; steady-state kinetics; pH 8, 55 °C): 495 µmol/min/mg
enzyme (Escherichia coli, UniProt P0AGF6)  Vmax (C[C@@H](O)[C@H](N)C(=O)O; steady-state kinetics; pH 7.5, 23 °C, apparent, not purified, with: PLP 0.1 mM, L-Thr): 3.5 µmol/min/mg
MQLMPFGCL  binding score (HLA class I histocompatibility antigen, A alpha chain, allele A*24:02 (Homo sapiens, UniProt P04439); conformational ELISA; peptide; concentration not given; baseline: positive control peptide, direction not given): 8.6%
GSGAGRETEV  binding intensity (human MAGI1-2/6 PDZ construct (MBP fusion); automated holdup; peptide, purified PDZ protein; concentration not given, unit not given; baseline: biotin control resin, higher = stronger binding): 0.0853
enzyme (Ectocarpus siliculosus, UniProt D7FYY3)  Vmax (Nc1ncnc2c1ncn2[C@@H]1O[C@H](COP(=O)(O)OP(=O)(O)O)[C@@H](O)[C@H]1O; steady-state kinetics; pH 5.5, 25 °C, with: 16 mM PEP): 17.8 µmol/min/mg
GSGAGICTIV  binding intensity (human MAGI1-2/6 PDZ construct (MBP fusion); automated holdup; peptide, crude extract; concentration not given, corrected by standard peak, unit not given; baseline: biotin control resin, higher = stronger binding): 0.0828
B6 (enzyme C33S)  Vmax (O=[N+]([O-])c1ccc(OP(=O)(O)O)cc1; steady-state kinetics; pH 7, 37 °C, with: Ni2+ 0.25 mM): 0.136 µmol/min/mg

For quick reference, copied from above:
enzyme (Escherichia coli, UniProt P0AGF6)  Vmax (C[C@@H](O)[C@H](N)C(=O)O; steady-state kinetics; pH 7.5, 23 °C, apparent, not purified, with: PLP 0.1 mM, L-Thr): 3.5 µmol/min/mg
